Assay results pooled from the literature.
Each line is one published result; not all experiments were run side by side. “And” joins repeats or separate records; there may be more than shown. ± marks the error that the study gave.
Chain of UniProt Q9Y2J8 (whole entry, looked up): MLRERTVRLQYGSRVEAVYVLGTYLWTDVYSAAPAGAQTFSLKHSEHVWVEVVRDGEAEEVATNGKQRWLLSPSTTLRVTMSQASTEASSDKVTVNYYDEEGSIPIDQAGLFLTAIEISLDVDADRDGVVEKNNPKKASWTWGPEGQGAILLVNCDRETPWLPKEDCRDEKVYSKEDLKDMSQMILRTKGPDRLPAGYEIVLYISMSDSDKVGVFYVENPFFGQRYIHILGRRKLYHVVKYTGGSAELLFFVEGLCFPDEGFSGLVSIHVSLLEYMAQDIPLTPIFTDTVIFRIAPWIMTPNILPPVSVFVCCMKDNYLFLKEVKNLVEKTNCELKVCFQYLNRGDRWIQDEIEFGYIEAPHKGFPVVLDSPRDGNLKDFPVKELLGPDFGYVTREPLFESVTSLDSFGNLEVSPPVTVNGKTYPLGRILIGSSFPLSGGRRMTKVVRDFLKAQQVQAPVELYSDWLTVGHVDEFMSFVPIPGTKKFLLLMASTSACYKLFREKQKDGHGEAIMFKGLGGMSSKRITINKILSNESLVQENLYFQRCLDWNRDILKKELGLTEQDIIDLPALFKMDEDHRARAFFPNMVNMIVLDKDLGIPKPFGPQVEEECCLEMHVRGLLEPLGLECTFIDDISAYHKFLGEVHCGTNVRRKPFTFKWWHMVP
Chain of UniProt P50613 (whole entry, looked up): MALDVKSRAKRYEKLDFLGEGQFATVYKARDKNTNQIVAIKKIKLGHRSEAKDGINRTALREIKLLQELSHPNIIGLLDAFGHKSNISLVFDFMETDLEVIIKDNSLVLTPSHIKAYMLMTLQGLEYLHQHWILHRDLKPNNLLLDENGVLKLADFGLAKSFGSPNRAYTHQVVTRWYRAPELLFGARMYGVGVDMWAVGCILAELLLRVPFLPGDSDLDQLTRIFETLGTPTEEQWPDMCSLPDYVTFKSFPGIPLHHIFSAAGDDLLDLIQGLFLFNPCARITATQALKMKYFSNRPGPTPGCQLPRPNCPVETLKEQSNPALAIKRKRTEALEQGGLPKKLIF
Chain of UniProt Q13882 (whole entry, looked up): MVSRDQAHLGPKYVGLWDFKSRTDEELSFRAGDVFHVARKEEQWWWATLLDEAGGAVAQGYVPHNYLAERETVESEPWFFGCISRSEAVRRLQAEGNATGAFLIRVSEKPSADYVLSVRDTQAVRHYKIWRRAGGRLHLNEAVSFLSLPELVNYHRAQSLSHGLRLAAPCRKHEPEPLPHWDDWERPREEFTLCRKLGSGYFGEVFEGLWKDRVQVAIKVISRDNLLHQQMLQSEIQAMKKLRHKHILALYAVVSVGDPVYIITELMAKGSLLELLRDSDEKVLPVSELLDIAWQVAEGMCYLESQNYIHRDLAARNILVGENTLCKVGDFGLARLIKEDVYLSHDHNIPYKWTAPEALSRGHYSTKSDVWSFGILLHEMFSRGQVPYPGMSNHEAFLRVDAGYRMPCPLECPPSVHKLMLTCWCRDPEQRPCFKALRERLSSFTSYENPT
Chain of UniProt P21452 (whole entry, looked up): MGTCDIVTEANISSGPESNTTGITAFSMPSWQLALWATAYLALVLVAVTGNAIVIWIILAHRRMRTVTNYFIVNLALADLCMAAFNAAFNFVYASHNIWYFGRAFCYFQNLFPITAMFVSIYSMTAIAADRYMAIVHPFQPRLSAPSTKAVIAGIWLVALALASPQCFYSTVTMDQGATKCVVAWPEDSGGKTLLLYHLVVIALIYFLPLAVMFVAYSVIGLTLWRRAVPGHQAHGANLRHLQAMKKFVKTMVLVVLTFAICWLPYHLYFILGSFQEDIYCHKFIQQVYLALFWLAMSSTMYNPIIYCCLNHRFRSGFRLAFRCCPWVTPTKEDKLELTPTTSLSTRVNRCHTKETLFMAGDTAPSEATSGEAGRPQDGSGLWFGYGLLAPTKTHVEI
Chain of UniProt Q00536 (whole entry, looked up): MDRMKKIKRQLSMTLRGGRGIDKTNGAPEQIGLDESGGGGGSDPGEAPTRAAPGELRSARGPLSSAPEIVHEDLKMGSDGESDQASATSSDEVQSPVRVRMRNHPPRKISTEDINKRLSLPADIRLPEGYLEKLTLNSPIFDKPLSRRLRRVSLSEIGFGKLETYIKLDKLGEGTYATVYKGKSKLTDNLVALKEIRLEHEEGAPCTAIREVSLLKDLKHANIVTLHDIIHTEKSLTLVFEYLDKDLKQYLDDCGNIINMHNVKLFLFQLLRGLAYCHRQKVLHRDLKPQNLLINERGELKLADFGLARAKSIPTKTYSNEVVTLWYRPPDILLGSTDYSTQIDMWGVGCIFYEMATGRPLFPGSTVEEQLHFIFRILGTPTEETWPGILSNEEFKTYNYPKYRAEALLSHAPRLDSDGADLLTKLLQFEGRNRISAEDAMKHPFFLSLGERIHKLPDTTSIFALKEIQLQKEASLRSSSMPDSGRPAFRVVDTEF
Chain of UniProt P53779 (whole entry, looked up): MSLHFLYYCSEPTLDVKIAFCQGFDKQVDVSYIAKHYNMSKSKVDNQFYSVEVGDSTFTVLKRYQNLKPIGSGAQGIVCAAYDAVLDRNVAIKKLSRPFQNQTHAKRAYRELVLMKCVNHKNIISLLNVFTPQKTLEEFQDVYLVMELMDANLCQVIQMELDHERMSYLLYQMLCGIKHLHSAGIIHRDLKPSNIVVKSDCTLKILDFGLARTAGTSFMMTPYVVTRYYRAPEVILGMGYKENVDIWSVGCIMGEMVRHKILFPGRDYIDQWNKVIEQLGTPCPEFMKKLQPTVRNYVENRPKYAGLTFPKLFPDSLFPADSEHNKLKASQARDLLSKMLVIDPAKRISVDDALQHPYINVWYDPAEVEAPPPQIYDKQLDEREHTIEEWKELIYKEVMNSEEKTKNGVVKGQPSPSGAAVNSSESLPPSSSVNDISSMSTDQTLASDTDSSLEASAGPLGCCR

| SMILES | tested on | assay | system | conditions | how to read | endpoint | value |
| --- | --- | --- | --- | --- | --- | --- | --- |
| CN(C)[C@H]1C[C@@]23CC[C@@]4(O2)C(=CC[C@]2(C)[C@@H](c5ccc6ccncc6c5)CC[C@H]24)C=C3[C@@H](O)[C@@H]1O | CDK7 (Homo sapiens, UniProt P50613) | ATP probe labelling, inhibitor, KiNativ profiling | – | 1 µM | – | inhibition | 4.6% |
| Cc1sc2c(c1C)C(c1ccc(Cl)cc1)=NC(CC(=O)OC(C)(C)C)c1nnc(C)n1-2 (centres unmarked) | TACR2 (Homo sapiens, UniProt P21452) | ligand displacement, radioligand | – | 1 µM | – | inhibition | 56% |
| Cc1ccc(N2CC3CCC(C2)N3C)cc1C(=O)N[C@H](C)c1cc(-c2cnn(C)c2)nc2ccccc12 | African green monkey cells | – | – | 62.5 µM | – | viability | 24.3% |
| CS(C)(=O)=Nc1ccc(-c2ccc(-c3nc4cc(O[C@@H]5CO[C@H]6[C@@H]5OC[C@H]6O)[nH]c4cc3F)cc2)cc1 | PTK6 (Homo sapiens, UniProt Q13882) | enzyme activity, inhibitor | – | 10 µM | – | inhibition | -22% |
| CC(C)CC(C(=O)N1CC2(CC1C#N)C(=O)Nc1ccccc12)N(C)C(=O)c1cc2c(F)cc(F)c(F)c2[nH]1 (centres unmarked) | Replicase polyprotein 1ab, main protease (rep, Porcine epidemic diarrhea virus, UniProt P0C6Y4) | protease activity, inhibitor | – | 3.16 µM | – | remaining activity | 10.1% |
| O=C1NC2(CC2)COc2ncc(F)cc2[C@H]2COCCN2c2ccn3ncc1c3n2 | – | – | Sprague-Dawley rat, female, uterus | oral, 2.5 mg/kg/day, 4 weeks, end of treatment | – | organ-to-body weight ratio | 0.131 ± 0.027% |
| Cc1ccc(N2CC3CN(C)CC3C2)cc1C(=O)N[C@H](C)c1cc(-c2cnn(C)c2)nc2ccccc12 (some centres unmarked) | African green monkey cells | – | – | 15.62 µM | – | viability | 105% |
| Nc1ccc(/C=C/C(=O)N2CCc3c(oc4c(-c5ccc(F)cc5)cc(-c5ccc(C(=O)N6CCC(F)(F)CC6)cn5)cc34)C2)cn1 | CDK16 (Homo sapiens, UniProt Q00536) | binding, competition with immobilised ligand | – | 1 µM | – | remaining binding | 72% |
| N[C@H](C(=O)N1CCCC1)C1CCN(c2nccc3c(-c4ncc(Cl)cc4Cl)cccc23)CC1 | PADI2 (Homo sapiens, UniProt Q9Y2J8) | enzyme activity | – | 0.6144 µM, high-affinity site, together with: Ca2+ 1.5 mM | – | kcat | 1.37 s⁻¹ and 1.41 s⁻¹ |
| O=C1NC(=O)c2c1c1cc(F)c[n+]3c1c1c2c2cc(O)ccc2[n]1[Ru-4]312([N]=C=S)[S+]3CC[S+]1CC[S+]2CC3 (centres unmarked) | MAPK10 (Homo sapiens, UniProt P53779) | enzyme activity | – | 100 nM, human enzyme, together with: 10 µM ATP | baseline: untreated | remaining activity | 95% |
| CC(C)[C@H]1NC(=O)C[C@H]2/C=C/CCSSC[C@@H](NC1=O)C(=O)N[C@H](Cc1cccc3ccccc13)C(=O)NCC(=O)O2 | PDK2 (Homo sapiens, UniProt Q15119) | enzyme activity, inhibitor | – | 10 µM | – | inhibition | 5.5% |

Repeated from above:
| SMILES | tested on | assay | system | conditions | how to read | endpoint | value |
| --- | --- | --- | --- | --- | --- | --- | --- |
| CN(C)[C@H]1C[C@@]23CC[C@@]4(O2)C(=CC[C@]2(C)[C@@H](c5ccc6ccncc6c5)CC[C@H]24)C=C3[C@@H](O)[C@@H]1O | CDK7 (Homo sapiens, UniProt P50613) | ATP probe labelling, inhibitor, KiNativ profiling | – | 1 µM | – | inhibition | 4.6% |
